Experimental data of several laboratories.
Compare with care: the assays were run in different laboratories.
Spike glycoprotein: Spike glycoprotein (Severe acute respiratory syndrome coronavirus 2, UniProt P0DTC2)
Spike glycoprotein RBD: Spike glycoprotein, RBD (Severe acute respiratory syndrome coronavirus 2, UniProt P0DTC2)
Spike glycoprotein S1 subunit: Spike glycoprotein, S1 subunit (Severe acute respiratory syndrome coronavirus 2, UniProt P0DTC2)

| Structure (SMILES) | target or system | assay | system | setting | measurement | value |
| --- | --- | --- | --- | --- | --- | --- |
| CCCC[C@H](NC(=O)[C@H](CO)NC(=O)[C@H](C)NC(=O)[C@H](CCC(=O)O)NC(=O)[C@H](C)NC(=O)[C@H](Cc1c[nH]cn1)NC(=O)CNC(=O)[C@H](CC(C)C)NC(=O)[C@H](CCC(=O)O)NC(=O)[C@H](CC(=O)O)NC(=O)[C@H](CC(C)C)NC(=O)[C@H](CC(C)C)NC(=O)[C@H](CCCNC(=N)N)NC(=O)[C@H](CCCC)NC(=O)[C@H](CCC(=O)O)NC(=O)[C@H](CCC(=O)O)NC(=O)[C@H](Cc1ccc(O)cc1)NC(=O)[C@@H](NC(=O)[C@H](CCCCN)NC(=O)[C@H](CCC(N)=O)NC(=O)[C@H](CC(C)C)NC(=O)[C@@H](NC(=O)[C@H](Cc1c[nH]c2ccccc12)NC(=O)[C@H](CCC(=O)O)NC(=O)[C@H](CCCCN)NC(=O)[C@@H](N)CC(=O)O)[C@@H](C)CC)[C@@H](C)CC)C(=O)N[C@@H](CCCNC(=N)N)C(=O)N[C@H](C(=O)N[C@@H](CO)C(=O)N[C@@H](CC(=O)O)C(=O)N[C@@H](CCC(=O)O)C(=O)N[C@H](C(=O)N[C@@H](Cc1ccc(O)cc1)C(=O)N[C@@H](CCC(=O)O)C(=O)N[C@@H](Cc1ccccc1)C(=O)N[C@@H](CCCC)C(=O)N[C@@H](CCCCN)C(=O)N[C@@H](CCCCN)C(N)=O)[C@@H](C)CC)C(C)C | Spike glycoprotein | binding, SPR |  |  | Kd | 0.013 µM |
| O=c1cc(-c2cc(O)c(O)c(S(=O)(=O)O)c2)oc2cc(O)c(S(=O)(=O)O)c(O)c12 | Spike glycoprotein | binding |  |  | Kd | 8.37 µM |
| CC(C)C[C@H](NC(=O)[C@H](Cc1cn(CC(=O)O)c2ccccc12)NC(=O)[C@H](CCCNC(=N)N)NC(=O)[C@H]1CCC[C@@H]1NC(=O)[C@H](CCC(=O)O)NC(=O)[C@H](CC(=O)O)NC(=O)[C@H](CC(=O)O)NC(=O)[C@@H](N)CCCNC(=N)N)C(=O)N[C@H]1CCC[C@@H]1C(=O)N[C@H](C(=O)N[C@@H](CC(=O)O)C(=O)N[C@H]1CCC[C@@H]1C(=O)N[C@H](C(=O)N[C@@H](Cc1ccc(O)cc1)C(=O)N[C@@H](CCC(=O)O)C(=O)N[C@H]1CCC[C@@H]1C(=O)N[C@@H](Cc1c[nH]c2ccccc12)C(=O)N[C@@H](Cc1c[nH]cn1)C(N)=O)C(C)C)[C@@H](C)O | Spike glycoprotein RBD |  |  |  | Kd | 2.1 µM |
| CCCCCCCCCCCCCCCC(=O)N[C@@H](CCC(=O)NCCOCCOCCC(=O)NCCOCCOCCC(=O)NCCCC[C@H](NC(=O)[C@H](CC(=O)O)NC(=O)[C@H](CC(C)C)NC(=O)[C@H](Cc1ccc(O)cc1)NC(=O)[C@H](CCCCN)NC(=O)[C@H](CO)NC(=O)[C@H](Cc1ccc(O)cc1)NC(=O)[C@H](CC(=O)O)NC(=O)[C@H](CO)NC(=O)[C@@H](NC(=O)[C@H](Cc1ccccc1)NC(=O)[C@@H](NC(=O)CNC(=O)[C@H](CCC(N)=O)NC(=O)[C@@H](CO)NC(=O)[C@@H](N)Cc1c[nH]cn1)[C@@H](C)O)[C@@H](C)O)C(=O)N[C@@H](CCCNC(=N)N)C(=O)N[C@@H](CCCNC(=N)N)C(=O)N[C@@H](C)C(=O)N[C@@H](CCC(N)=O)C(=O)N[C@@H](CC(=O)O)C(=O)N[C@@H](Cc1ccccc1)C(=O)N[C@H](C(=O)N[C@@H](CCC(N)=O)C(=O)N[C@@H](Cc1c[nH]c2ccccc12)C(=O)N[C@@H](CC(C)C)C(=O)N[C@@H](CC(C)C)C(=O)N[C@@H](CC(N)=O)C(=O)N[C@H](C(=O)NCC(=O)NCC(=O)N1CCC[C@H]1C(=O)N[C@@H](CO)C(=O)N[C@@H](CO)C(=O)NCC(=O)N[C@@H](C)C(=O)N1CCC[C@H]1C(=O)N1CCC[C@H]1C(=O)N1CCC[C@H]1C(=O)N[C@@H](CO)C(N)=O)[C@@H](C)O)C(C)C)C(=O)O |  |  | rhesus monkey, male, plasma | subcutaneous, 60 µg/kg, day 1, toxicokinetics, mean | AUC(0-t) | 422 ng·h/mL |
| O=C(C=Cc1ccc(O)c(O)c1)OC1CC(O)(C(=O)O)CC(OC(=O)C=Cc2ccc(O)c(O)c2)C1O (centres unmarked) | Spike glycoprotein | binding |  |  | Kd | 18.3 µM |
| CC(C)C[C@H](NC(=O)[C@H](CC(=O)O)NC(=O)[C@H](CCC(=O)O)NC(=O)[C@H](C)NC(=O)[C@H](CCC(=O)O)NC(=O)[C@H](Cc1c[nH]cn1)NC(=O)[C@@H](N)CC(N)=O)C(=O)N[C@@H](Cc1ccccc1)C(=O)N[C@@H](Cc1ccc(O)cc1)C(=O)N[C@@H](CCC(N)=O)C(=O)N[C@@H](CO)C(=O)O | Spike glycoprotein | binding |  |  | Kd | 1.53 µM |
| CC(C)=CCCC(C)(OC1OC(COC2OC(CO)C(O)C2OC2OCC(O)C(O)C2O)C(O)C(O)C1O)C1CCC2(C)C1C(O)CC1C3(C)CCC(OC4OC(CO)C(O)C(O)C4OC4OC(CO)C(O)C(O)C4O)C(C)(C)C3CCC12C (centres unmarked) | Spike glycoprotein S1 subunit | binding |  |  | Kd | 9.44 µM |
| CC[C@H](C)[C@H](NC(=O)[C@H](CCC(=O)O)NC(=O)[C@H](CC(=O)O)NC(=O)[C@H](CO)NC(=O)[C@@H](NC(=O)[C@H](CCCNC(=N)N)NC(=O)[C@H](CCSC)NC(=O)[C@H](CO)NC(=O)[C@H](C)NC(=O)[C@H](CCC(=O)O)NC(=O)C(C)(C)NC(=O)[C@H](CC(=O)O)NC(=O)[C@@H](C)NC(=O)[C@H](CC(C)C)NC(=O)[C@H](CCC(=O)O)NC(=O)[C@H](CC(=O)O)NC(=O)[C@H](CC(C)C)NC(=O)[C@H](CC(C)C)NC(=O)[C@H](CCCNC(=N)N)NC(=O)[C@H](CCSC)NC(=O)[C@H](CCC(=O)O)NC(=O)[C@H](CCC(=O)O)NC(=O)[C@H](Cc1ccc(O)cc1)NC(=O)[C@@H](NC(=O)[C@H](CCCCN)NC(=O)[C@H](CCC(N)=O)NC(=O)[C@H](CC(C)C)NC(=O)[C@@H](NC(=O)[C@H](Cc1c[nH]c2ccccc12)NC(=O)[C@H](CCC(=O)O)NC(=O)[C@H](CCCCN)NC(=O)[C@@H](N)CC(=O)O)[C@@H](C)CC)[C@@H](C)CC)C(C)C)C(=O)N[C@@H](Cc1ccc(O)cc1)C(=O)N[C@@H](CCC(=O)O)C(=O)N[C@@H](Cc1ccccc1)C(=O)N[C@@H](CCSC)C(=O)N[C@@H](CCCCN)C(=O)N[C@@H](CCCCN)C(N)=O | Spike glycoprotein | binding, SPR |  |  | Kd | 0.00047 µM |
| CC(C)C[C@H](NC(=O)[C@H](Cc1c[nH]c2ccccc12)NC(=O)[C@H](Cc1c[nH]cn1)NC(=O)[C@H]1CCC[C@@H]1NC(=O)[C@H](CCC(=O)O)NC(=O)[C@H](CC(=O)O)NC(=O)[C@H](CC(=O)O)NC(=O)[C@@H](N)CC(N)=O)C(=O)N[C@H]1CCC[C@@H]1C(=O)N[C@H](C(=O)N[C@@H](CC(=O)O)C(=O)N[C@H]1CCC[C@@H]1C(=O)N[C@H](C(=O)N[C@@H](Cc1ccc(O)cc1)C(=O)N[C@@H](CCC(=O)O)C(=O)N[C@H]1CCC[C@@H]1C(=O)N[C@@H](Cc1c[nH]c2ccccc12)C(=O)N[C@@H](Cc1c[nH]cn1)C(N)=O)C(C)C)[C@@H](C)O | Spike glycoprotein RBD |  |  |  | Kd | 82.5 µM |
| C[C@@H]1O[C@@H](O[C@H]2[C@H](O)[C@@H](O)[C@H](OC[C@H]3O[C@@H](O[C@H]4CC[C@@]5(C)[C@@H](CC[C@]6(C)[C@@H]5C=C[C@]57OC[C@@]8(CCC(C)(C)C[C@H]85)[C@@H](O)C[C@]76C)[C@]4(C)CO)[C@H](O)[C@@H](O)[C@@H]3O)O[C@@H]2CO)[C@H](O)[C@H](O)[C@H]1O | Spike glycoprotein S1 subunit | binding |  |  | Kd | 6.65 µM |
| CC[C@H](C)[C@H](NC(=O)[C@H](CC(C)C)NC(=O)[C@H](CC(=O)O)NC(=O)[C@H](CO)NC(=O)[C@@H](NC(=O)[C@H](CCCNC(=N)N)NC(=O)[C@H](CCSC)NC(=O)[C@H](CO)NC(=O)[C@H](C)NC(=O)[C@H](CCC(=O)O)NC(=O)[C@H](C)NC(=O)[C@H](Cc1c[nH]cn1)NC(=O)CNC(=O)[C@H](CC(C)C)NC(=O)[C@H](CCC(=O)O)NC(=O)[C@H](CC(=O)O)NC(=O)[C@H](CC(C)C)NC(=O)[C@H](CC(C)C)NC(=O)[C@H](CCCNC(=N)N)NC(=O)[C@H](CCSC)NC(=O)[C@@H](NC(=O)[C@H](CCC(=O)O)NC(=O)[C@H](Cc1ccc(O)cc1)NC(=O)[C@@H](NC(=O)[C@H](CCCCN)NC(=O)[C@H](CCC(N)=O)NC(=O)[C@H](CC(C)C)NC(C)=O)[C@@H](C)CC)[C@@H](C)CC)C(C)C)C(=O)N[C@@H](Cc1ccc(O)cc1)C(=O)N[C@@H](CCC(=O)O)C(=O)N[C@@H](Cc1ccccc1)C(=O)N[C@@H](CCSC)C(=O)N[C@@H](CCCCN)C(=O)N[C@@H](CCCCN)C(=O)NCC(=O)N[C@@H](CC(=O)O)C(=O)N[C@@H](CCC(=O)O)C(=O)N[C@@H](CCCNC(=N)N)C(=O)N[C@@H](CC(C)C)C(=O)N[C@@H](CC(C)C)C(=O)N[C@@H](CCC(=O)O)C(=O)N[C@@H](CCC(=O)O)C(=O)N[C@@H](C)C(=O)N[C@@H](CCC(=O)O)C(=O)N[C@@H](CCCNC(=N)N)C(=O)N[C@@H](CC(C)C)C(=O)N[C@@H](CC(C)C)C(=O)N[C@@H](CCC(=O)O)C(=O)N[C@@H](CCC(=O)O)C(=O)N[C@H](C(N)=O)C(C)C | Spike glycoprotein | binding, BLI |  |  | Kd | 0.00611 µM |
| CNC(C)C1C(O)CC2(C)C3CCC4C(C)(C)C(NC)CCC45CC35CCC12C (centres unmarked) | Spike glycoprotein | binding, biolayer interferometry |  |  | Kd | 38.7 µM |
| CC[C@H](C)[C@H](NC(=O)[C@H](CCCCNC(=O)CN(CCNC(=O)CN(CCNC(=O)CN(CCNC(=O)CN(CCNC(=O)[C@H](CCCNC(=N)N)NC(C)=O)C(=O)Cn1ccc(N)nc1=O)C(=O)Cn1cnc2c(=O)[nH]c(N)nc21)C(=O)Cn1cnc2c(=O)[nH]c(N)nc21)C(=O)Cn1ccc(N)nc1=O)NC(=O)[C@H](CC(=O)O)NC(=O)[C@H](CO)NC(=O)[C@@H](NC(=O)[C@H](CCCNC(=N)N)NC(=O)[C@H](CCSC)NC(=O)[C@H](CO)NC(=O)[C@H](C)NC(=O)[C@H](CCC(=O)O)NC(=O)[C@H](C)NC(=O)[C@H](Cc1c[nH]cn1)NC(=O)CNC(=O)[C@H](CC(C)C)NC(=O)[C@H](CCC(=O)O)NC(=O)[C@H](CC(=O)O)NC(=O)[C@H](CC(C)C)NC(=O)[C@H](CC(C)C)NC(=O)[C@H](CCCNC(=N)N)NC(=O)[C@H](CCSC)NC(=O)[C@H](CCCC(=O)NCCN(CC(=O)NCCN(CC(=O)NCCN(CC(=O)NCCN(CC(=O)N[C@@H](CCCNC(=N)N)C(N)=O)C(=O)Cn1cnc2c(=O)[nH]c(N)nc21)C(=O)Cn1ccc(N)nc1=O)C(=O)Cn1ccc(N)nc1=O)C(=O)Cn1cnc2c(=O)[nH]c(N)nc21)NC(=O)[C@H](CCC(=O)O)NC(=O)[C@H](Cc1ccc(O)cc1)NC(=O)[C@@H](NC(=O)[C@H](CCCCN)NC(=O)[C@H](CCC(N)=O)NC(=O)[C@H](CC(C)C)NC(=O)[C@@H](NC(=O)[C@H](Cc1c[nH]c2ccccc12)NC(=O)[C@H](CCC(=O)O)NC(=O)[C@H](CCCCN)NC(=O)[C@H](CC(=O)O)NC(C)=O)[C@@H](C)CC)[C@@H](C)CC)C(C)C)C(=O)N[C@@H](Cc1ccc(O)cc1)C(=O)N[C@@H](CCC(=O)O)C(=O)N[C@@H](Cc1ccccc1)C(=O)N[C@@H](CCSC)C(=O)N[C@@H](CCCCN)C(=O)N[C@@H](CCCCN)C(N)=O | Spike glycoprotein | binding, SPR |  |  | Kd | 7.4e-05 µM |
| O=C1CC(c2ccc(O)cc2)Oc2cc(OC3OC(CO)C(O)C(O)C3O)c(OC3OC(CO)C(O)C(O)C3O)c(O)c21 (centres unmarked) | Spike glycoprotein | binding |  |  | Kd | 2.15 µM |

Some of these lines once more:
| Structure (SMILES) | target or system | assay | system | setting | measurement | value |
| --- | --- | --- | --- | --- | --- | --- |
| C[C@@H]1O[C@@H](O[C@H]2[C@H](O)[C@@H](O)[C@H](OC[C@H]3O[C@@H](O[C@H]4CC[C@@]5(C)[C@@H](CC[C@]6(C)[C@@H]5C=C[C@]57OC[C@@]8(CCC(C)(C)C[C@H]85)[C@@H](O)C[C@]76C)[C@]4(C)CO)[C@H](O)[C@@H](O)[C@@H]3O)O[C@@H]2CO)[C@H](O)[C@H](O)[C@H]1O | Spike glycoprotein S1 subunit | binding |  |  | Kd | 6.65 µM |
